Measured values collected from several papers.
Each line is one published result; not all experiments were run side by side. ± marks the error that the study gave.

N=C(N)NCCC[C@@H]1NC(=O)[C@H](CCCCN)NC(=O)[C@@H](Cc2ccc(O)cc2)NC(=O)[C@H](CC(=O)O)NC(=O)CNC1=O  IC50 (U87; cytotoxicity, MTT; 48 h): 77 ± 3.7 µM
Cc1ccc(NC(=O)c2c(C)oc3ccc(O)c(CN4CCCCCC4)c23)cc1  IC50 (L-363; cell growth or viability, MTS; 72 h): 5.8 µM
Cc1ccc(S(=O)(=O)c2c(-c3ccccc3)c3c(C)c4cc(F)ccc4n3c3ccccc23)cc1  IC50 (LS174T; cell growth or viability, MTT; 72 h): > 100 µM
CC(C)=CCc1c(-c2cc(O)c(O)cc2O)oc2c(CC=C(C)C)c(O)cc(O)c2c1=O  IC50 (SAS; cell growth or viability, MTT; 72 h): 50 µM
CC(=O)c1cnc(N)nc1N1CC[C@H]1c1nn2ccc(Cl)c2c(=O)n1-c1ccccc1  IC50 (human CD4 T cells; Th17 differentiation, item: IL-17A): 0.063 µM
COc1ccc(-c2cn(C)c3ncnc(N)c23)cc1  IC50 (SNU-16; cell growth or viability, ATP luminescence; 96 h): > 10 µM
C=CC(OC(C)=O)c1ccc(OC)cc1 (centres unmarked)  IC50 (EJ-28; MTT; 24 h): > 50 µM
Clc1ccc(C=[N+]2N=C(Nc3ccccc3)[S][Pd-]2([Cl])[Cl])s1  IC50 (CEM human lymphocytes; cell proliferation): 60 µM
CC1CC(=O)N(CCCN)N=C1c1ccc(NC(=O)N2Cc3ccncc3C2)cc1 (centres unmarked)  IC50 (A549-C4.4a; cell viability, CellTiter-Glo): > 0.3 µM
CC1(C)Cc2c(-c3ccccc3)c(-c3ccc(Cl)cc3)c(CC(=O)NCC(=O)O)n2C1  IC50 (mouse peritoneal macrophages; LTB4 production; with: LPS): 1.24 µM
NS(=O)(=O)c1ccc(NC(=O)NN[C@@H]2O[C@H](CO)[C@H](O)[C@H](O)[C@H]2O)cc1  IC50 (HCEC; cell growth or viability, MTT; 96 h): > 100 µM
Cc1cnc(Nc2cc(C)c(C)c(C)c2)nc1Nc1ccc2oc(=O)[nH]c2c1  IC50 (human CD14+ monocytes; CCL17 release; with: TSLP): 0.0817 µM
CC(C)c1cccc(C(C)C)c1N1CCN(c2c(C(C)C)cccc2C(C)C)C1=[Se].[Cl][Ag]  IC50 (LoVo MDR; MTT; 72 h): 1.2 ± 0.4 µM
CCn1[c]([Au-]([Cl])([Cl])[Cl])[n+](CC)c2ccc(C(=O)OC)cc21  IC50 (RC-124 kidney epithelial; cell proliferation, crystal violet staining; 96 h): 6.4 ± 1.9 µM
C=CCc1cc(OC)c(OC(C)=O)c(OC)c1  IC50 (EJ-28; MTT; 24 h): > 50 µM
COc1ccc(/C=C/C2=[N+]3C(=C(COC(C)=O)c4c(C)cc(/C=C/c5ccc(OC)cc5)n4[B-]3(F)F)C(C)=C2)cc1  IC50 (RPE-1; phototoxicity, resazurin; with: 645 nm light, 9.00 J/cm2): 2.9 ± 0.4 µM
S=c1n(-c2ccccc2)c2c3ccccc3nc3[n+]2[n]1[Ir-3]12([S]3)([c]3ccc4ccccc4c3-c3sc4ccccc4[n+]31)[c]1ccc3ccccc3c1-c1sc3ccccc3[n+]12  IC50 (MRC9; cell viability, MTT; irradiation 450 nm, 15.5 mW/cm^2, 15 min): > 25 µM
Fc1ccc(-c2cn(CSc3ccccc3)nn2)c(F)c1  IC50 (JEG-3; cell growth or viability, MTS; 72 h): 35.5 µM
COC(=O)[C@@]1(C)C=C(C(=O)Nc2cccc(C(=O)Nc3ccc(Nc4nccc(-c5cccnc5)n4)c(C)c3)c2)C(=O)CC1  IC50 (SH-SY5Y MKK7-ACT; c-Jun phosphorylation, inhibitor, western blot, item: phospho-c-Jun Ser73; 6 h, with: doxycycline): 0.66 ± 0.1 µM
Cc1cc(C#N)cc(C)c1Oc1cc(Nc2ccc(C#N)cc2)nc2cnccc12  IC50 (MOLT-3; 48 h): > 128 µM

Excerpt of the above:
NS(=O)(=O)c1ccc(NC(=O)NN[C@@H]2O[C@H](CO)[C@H](O)[C@H](O)[C@H]2O)cc1  IC50 (HCEC; cell growth or viability, MTT; 96 h): > 100 µM
COc1ccc(/C=C/C2=[N+]3C(=C(COC(C)=O)c4c(C)cc(/C=C/c5ccc(OC)cc5)n4[B-]3(F)F)C(C)=C2)cc1  IC50 (RPE-1; phototoxicity, resazurin; with: 645 nm light, 9.00 J/cm2): 2.9 ± 0.4 µM
